# Experimental data pooled from the literature.
# Each numbered part is a random draw from the data of one study; scales do not carry over between parts. Substitutions count along the parent as printed.

# Block 1 — target: CCNB1, cyclin fold, Cln2 fusion (human); method: yeast growth competition, sequencing; sample: yeast; notes: strong parent motif; baseline: not given; direction: higher = stronger binding
# Starting sequence: PKMYT1 docking peptide (human); SFEPRNLLSLFED
Change,normalised enrichment score
SFEPRNLLSLSED [F11S],0.605
LFEPRNLLSLFED [S1L],1.47
SFEMRNLLSLFED [P4M],0.517
SFEPRNLLSDFED [L10D],1.52
SFSPRNLLSLFED [E3S],0.417
SFEPRNLTSLFED [L8T],0.366
SFENRNLLSLFED [P4N],0.2
SFEPRNLLSLFFD [E12F],-0.00289
SFEPRNFLSLFED [L7F],-0.0918
SFEPRNLLRLFED [S9R],0.985
SFEPRNLLSLFEP [D13P],0.972
KFEPRNLLSLFED [S1K],1.04
SFEPKNLLSLLED [R5K F11L],1.09
SFEPRNLLSLFSD [E12S],0.129
SFEPRNLLSLCED [F11C],0.0368
SFEPRNPLSLFED [L7P],-0.709

# Block 2 — method: aptamer microarray, sandwich; form: DNA with 2'F-ANA; sample: in vitro; tested at: 200 nM; added: Cy3 exosite-II aptamer, 400 nM; direction: higher = stronger binding; strand: GGTTGGTGTGGTTGG
# Target: Prothrombin, mature alpha-thrombin (F2, Homo sapiens, UniProt P00734)
# Notes: whole 15-mer aptamer, many near background
Modification,mean fluorescence intensity [a.u.]
2'F-ANA at 1 2 4 6 7 8 9 10,53.5
2'F-ANA at 1 3 4 6 8 9 12,422
2'F-ANA at 1 2 5 6 8 9 10 12,65.9
2'F-ANA at 1 3 6 9 10 11 12 13,83.7
2'F-ANA at 1 3 5 6 10 11 12 13 15,52.9
2'F-ANA at 1 2 3 4 7 9 11 12 15,245
2'F-ANA at 1 2 3 4 6 8 9 10 11 12 13 15,86.2
2'F-ANA at 1 3 5 15,63.4
2'F-ANA at 2 7 11 13 15,321
2'F-ANA at 1 2 3 4 5 7 10 13,48.1
2'F-ANA at 3 4 8 9 12 13 15,633
2'F-ANA at 2 4 6 9 10 11 12 14,60.7
2'F-ANA at 2 3 5 9 10 11 12 13,56.2
2'F-ANA at 1 2 4 5 7 8 10 11 14,48.9
2'F-ANA at 3 5 6 7 8 10 12 13 15,55.3
2'F-ANA at 2 5 7 8 9 12 15,164

# Block 3 — method: protein-binding microarray; form: hairpin DNA; sample: in vitro; tested at: not given; baseline: not given; direction: higher = stronger binding
# Target: Homeobox protein Hox-C11, full length (HOXC11, Homo sapiens, UniProt O43248, residues 1-304)
# Chain of UniProt O43248 (whole entry, looked up): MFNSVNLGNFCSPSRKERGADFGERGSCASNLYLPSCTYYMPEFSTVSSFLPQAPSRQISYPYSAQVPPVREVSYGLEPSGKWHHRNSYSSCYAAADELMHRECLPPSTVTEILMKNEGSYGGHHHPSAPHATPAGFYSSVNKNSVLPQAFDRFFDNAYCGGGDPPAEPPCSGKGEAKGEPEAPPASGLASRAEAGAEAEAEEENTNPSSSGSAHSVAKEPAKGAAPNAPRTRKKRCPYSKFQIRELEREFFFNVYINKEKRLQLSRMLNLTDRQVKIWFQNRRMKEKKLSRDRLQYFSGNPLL
# Notes: whole hairpin DNA, median over replicate spots
Strand,median fluorescence [a.u.]
GAGGCCAGGTCGTTAAAGCCTCCTGGCTTTAACGACCTGGCCTCACACTC (5mC at 36),11500
GAGGCCAGGTCGCGAAAGCCTCCTGGCTTTCGCGACCTGGCCTCACACTC (5mC at 13),10800
GAGGCCAGCGCGTTAAAGCCTCCTGGCTTTAACGCGCTGGCCTCACACTC (5mC at 35),10300
GAGGCCAGGTCCGTAAAGCCTCCTGGCTTTACGGACCTGGCCTCACACTC (5mC at 12 32),9380
GAGGCCAGGTCGCAAAAGCCTCCTGGCTTTTGCGACCTGGCCTCACACTC (5mC at 13),10500
GAGGCCAGGTCGTAAACGCCTCCTGGCGTTTACGACCTGGCCTCACACTC,11400
GAGGCCACGTCGTAAAAGCCTCCTGGCTTTTACGACGTGGCCTCACACTC (5mC at 8 36),8970
GAGGCCAGGTTGTAAAAGCCTCCTGGCTTTTACAACCTGGCCTCACACTC,9180
GAGGCCAGGTCGAAAAAGCCTCCTGGCTTTTTCGACCTGGCCTCACACTC,9480
GAGGCCCGGTCGTTAAAGCCTCCTGGCTTTAACGACCGGGCCTCACACTC (5mC at 7),10100
GAGGCCAGGTCGTTAAAGCCTCCTGGCTTTAACGACCTGGCCTCACACTC,10700
GAGGCCAGGGCGTTAAAGCCTCCTGGCTTTAACGCCCTGGCCTCACACTC,10100
GAGGCCAGGGCGTAAAAGCCTCCTGGCTTTTACGCCCTGGCCTCACACTC,9770
GAGGCCAGGTCGTAAGAGCCTCCTGGCTCTTACGACCTGGCCTCACACTC (5mC at 29),10600
GAGGCCAGCTCGTAAAAGCCTCCTGGCTTTTACGAGCTGGCCTCACACTC (5mC at 9),8700
GAGGCCAGTTCGTTAAAGCCTCCTGGCTTTAACGAACTGGCCTCACACTC,8550
GAGGCCAGGTCGTAAAAGCCTCCTGGCTTTTACGACCTGGCCTCACACTC (5mC at 37),10600
GAGGCCACGTCGTAAAAGCCTCCTGGCTTTTACGACGTGGCCTCACACTC,9230
GAGGCCAGGCGGTAAAAGCCTCCTGGCTTTTACCGCCTGGCCTCACACTC (5mC at 34),10100

# Block 4 — target: NFE2L3, bZIP domain (human); method: DHFR protein complementation; sample: yeast; baseline: wild-type JUN-FOS pair; direction: higher = stronger binding
# Notes: single substitutions, most at no-binding floor
# Starting sequence: JUN, bZIP domain (human); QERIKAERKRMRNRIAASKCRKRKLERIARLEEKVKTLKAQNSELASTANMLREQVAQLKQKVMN; partner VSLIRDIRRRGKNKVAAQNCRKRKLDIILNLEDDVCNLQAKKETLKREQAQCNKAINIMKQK
Change,binding fitness [natural log]
S47P,-1.52
E44Q,-1.47
K34L,-1.42
A57Q,-1.53
S43T,-1.4
L52W,-1.4
A57P,-1.56
T37R,-1.53
N42E,-1.5
A49N,-1.47
T37P,-1.45
V56P,-1.57
I28P,-1.53
E32A,-1.24
A57W,-1.42
L38G,-1.48

# Block 5 — method: DHFR PCA, deep sequencing; sample: yeast; added: (+)-ABA 200 µM; baseline: wild-type fitted maximum; direction: higher = stronger binding
# Target: ABI1, truncated, D143A, DHFR fusion (Arabidopsis thaliana)
# Notes: methotrexate growth selection, single substitutions
# Starting sequence: PYL1, truncated, DHFR fusion (Arabidopsis thaliana); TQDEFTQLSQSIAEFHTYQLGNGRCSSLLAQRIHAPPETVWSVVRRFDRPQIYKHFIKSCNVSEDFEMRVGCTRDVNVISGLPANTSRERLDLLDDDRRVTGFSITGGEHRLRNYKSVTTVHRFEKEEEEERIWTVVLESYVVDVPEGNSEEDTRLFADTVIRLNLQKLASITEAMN
Change,relative binding score [%]
G21F,91.7
I133P,116
T73K,98.5
Q31W,69
Q10D,101
S87C,64.1
G108D,45.9
I33F,9.93
R46A,96.9
G102T,27.2
G21T,101
K168M,88.7
H16I,0.136
V70H,87.9
A170I,0.666

# Some of these lines once more (block 2):
Modification,mean fluorescence intensity [a.u.]
2'F-ANA at 1 2 4 5 7 8 10 11 14,48.9
2'F-ANA at 1 2 4 6 7 8 9 10,53.5
2'F-ANA at 2 4 6 9 10 11 12 14,60.7
2'F-ANA at 1 3 4 6 8 9 12,422
2'F-ANA at 1 2 3 4 6 8 9 10 11 12 13 15,86.2
2'F-ANA at 2 7 11 13 15,321
2'F-ANA at 1 2 5 6 8 9 10 12,65.9
2'F-ANA at 1 2 3 4 7 9 11 12 15,245
2'F-ANA at 2 3 5 9 10 11 12 13,56.2
2'F-ANA at 3 4 8 9 12 13 15,633
2'F-ANA at 1 3 5 15,63.4
